Experimental data from different studies.
Parts stem from different laboratories: compare values within a part only.

Series 1
Target: Interferon regulatory factor 5, full length, phosphomimetic (IRF5, Homo sapiens, UniProt Q13568-2, residues 1-514, K96S/S451D/S453D/S456D/S462D)
Method: protein-binding microarray
Form: double-stranded DNA, one strand shown
Sample: in vitro
Tested at: 250 nM
Setting: 60-bp whole probe
Added: salmon DNA 0.4 mg/ml
Reference: random background probes
Direction: higher = stronger binding
Shared flanks, not repeated: GCCTAGCAC … GTCTTGATTCGCTTGACGCTGCTG
Sequence	log fluorescence
TTAGAACCGGGGACTGGATTAGTGCTA	-0.223 z-score
TTAGATTTCAGTTTCGATCAGTGCTAG	10.1 z-score
GACGCTTTCGGGTATCGAGACGTGCTA	9.04 z-score
CCCGTTCACCCACGACCCTTGTGCTAG	-0.0874 z-score
TCAGGTTCCCTTTTCCTTTAGTGCTAG	0.434 z-score
TCACGTATATTCCCTAGAACTGTGCTA	0.486 z-score
TACGAACTGGGGTTTCGAGACGTGCTA	0.997 z-score
GACGGTTTCCTTTTCCTGAAGTGCTAG	1.28 z-score
GACGATTTCGGGAATGGAGACGTGCTA	2.3 z-score
TTAGGTCTCCTATTGCTTTAGTGCTAG	-0.462 z-score
TCTTTTTTTCTTTTATTAGTGTGCTAG	1.8 z-score
TTAGGTATCGACATTGGGTTAGTGCTA	2.64 z-score
TTAGAGCTGAGTTTCGATTAGTGCTAG	9.04 z-score
TCAACTTTCTTTAACTCACTGTGCTAG	2.16 z-score
CTTGCTTTATGTGTAGGTCTGTGCTAG	-0.205 z-score
TTCACTTTAACTTATTCTCTAGTGCTA	1.34 z-score

Series 2
Target: Prothrombin, mature alpha-thrombin (F2, Homo sapiens, UniProt P00734)
Method: aptamer microarray, sandwich
Form: DNA with 2'F-ANA
Sample: in vitro
Tested at: 200 nM
Setting: whole 15-mer aptamer, many near background
Added: Cy3 exosite-II aptamer, 400 nM
Direction: higher = stronger binding
Sequence: GGTTGGTGTGGTTGG
Modification	mean fluorescence intensity [a.u.]
2'F-ANA at 1 3 5 6 7 12 14	48
2'F-ANA at 1 3 8 10 11	75.5
2'F-ANA at 1 5 7 8 9 12 14 15	51.4
2'F-ANA at 2 7 8 10 13 14	88.7
2'F-ANA at 3 4 5 7 11	84.9
2'F-ANA at 3 4 5 6 7 11 12 13	110
2'F-ANA at 1 3 5 6 10 12 13 15	49.6
2'F-ANA at 1 2 5 6 8 11 14	49.7
2'F-ANA at 1 3 4 7 8 9 15	259
2'F-ANA at 6 7 9 10 11	150
2'F-ANA at 2 6 8 11 13 14	121
2'F-ANA at 1 2 5 7 8 11 15	54.5
2'F-ANA at 2 3 5 6 10 13 15	48.3
2'F-ANA at 3 4 6 8 10 13 14 15	133
2'F-ANA at 1 2 5 7 10 12 14	49.2
2'F-ANA at 1 3 4 5 8 10 14 15	60.1
2'F-ANA at 4 5 7 8 10 11	48.9
2'F-ANA at 2 3 4 5 7 10 15	90.7
2'F-ANA at 2 4 6 7 8 9 11 14	81.9
2'F-ANA at 1 2 3 4 5 9 11 12 14 15	45.9

Series 3
Target: Histone acetyltransferase KAT6A, both winged helices, GST fusion (KAT6A, Homo sapiens, UniProt Q92794, residues 1-181)
Method: protein binding microarray
Form: double-stranded DNA, one strand shown
Sample: in vitro
Tested at: not given
Setting: 8-mer, flanks averaged, mean of 2 arrays, mostly near background
Reference: not given
Direction: higher = stronger binding
Construct (chain): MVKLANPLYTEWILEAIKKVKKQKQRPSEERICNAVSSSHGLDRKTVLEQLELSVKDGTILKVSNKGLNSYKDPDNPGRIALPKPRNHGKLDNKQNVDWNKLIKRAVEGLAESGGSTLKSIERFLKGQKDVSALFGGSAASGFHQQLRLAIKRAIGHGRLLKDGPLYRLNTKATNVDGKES
Sequence	E-score
GGGAACCC	0.0587
CAGTCTGG	-0.132
ATTCTAGC	-0.131
GATGACGA	-0.0672
AGGGGTCC	-0.0975
CAATTCTC	-0.118
CAGGGTAA	-0.145
ATGATTGA	-0.192
AAGCAAAG	-0.0844
ACCCCGGC	0.176
AGTCTCAC	-0.0138
CAGATGGC	-0.0901
GATCTTCA	-0.013
ATGGCCAC	-0.0543
CCTGGTGA	-0.17
AATCTTTA	-0.0242
AATCAATT	0.00562
CTATCCCC	-0.194
CCACAGCA	-0.0477
CGGCAAAG	0.205
ACCAAGTA	-0.153
ACAAAGCC	-0.0377
CCACAACC	0.00588
ATGCGAGG	0.0352
GATACTCA	-0.0606

Series 4
Target: Krueppel-like factor 3, full length (KLF3, Homo sapiens, UniProt P57682, residues 1-345)
Chain of UniProt P57682 (whole entry, looked up): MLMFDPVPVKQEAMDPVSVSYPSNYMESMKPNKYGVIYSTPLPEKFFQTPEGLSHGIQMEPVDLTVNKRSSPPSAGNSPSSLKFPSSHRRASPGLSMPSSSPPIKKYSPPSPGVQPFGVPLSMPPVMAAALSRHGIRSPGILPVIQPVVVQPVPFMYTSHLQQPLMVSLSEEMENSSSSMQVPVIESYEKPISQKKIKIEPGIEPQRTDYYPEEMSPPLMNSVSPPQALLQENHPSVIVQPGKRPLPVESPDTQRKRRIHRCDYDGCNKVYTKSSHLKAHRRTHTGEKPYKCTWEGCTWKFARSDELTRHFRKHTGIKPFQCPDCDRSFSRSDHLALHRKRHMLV
Method: protein-binding microarray
Form: hairpin DNA
Sample: in vitro
Tested at: not given
Setting: whole hairpin DNA, median over replicate spots
Reference: not given
Direction: higher = stronger binding
Sequence	median fluorescence
GAGGCCGCGCGCGCCCAGCCTCCTGGCTGGGCGCGCGCGGCCTCACACTC (5mC at 8)	9170 a.u.
GAGGCCGACCGCGCCCCGCCTCCTGGCGGGGCGCGGTCGGCCTCACACTC (5mC at 17)	9450 a.u.
GAGGCCGCGCGCGCCCAGCCTCCTGGCTGGGCGCGCGCGGCCTCACACTC	11500 a.u.
GAGGCCGATCACGCCCAGCCTCCTGGCTGGGCGTGATCGGCCTCACACTC	15000 a.u.
GAGGCCCGCCACGCCCAGCCTCCTGGCTGGGCGTGGCGGGCCTCACACTC	9190 a.u.
GAGGCCGACGGCGCCCAGCCTCCTGGCTGGGCGCCGTCGGCCTCACACTC (5mC at 9)	8530 a.u.
GAGGCCGACCACGCGCAGCCTCCTGGCTGCGCGTGGTCGGCCTCACACTC (5mC at 30)	15600 a.u.
GAGGCCGACCGCGCCGAGCCTCCTGGCTCGGCGCGGTCGGCCTCACACTC (5mC at 15)	8700 a.u.
GAGGCCGACCGCGCCCGGCCTCCTGGCCGGGCGCGGTCGGCCTCACACTC (5mC at 28)	9230 a.u.
GAGGCCGACCGCGCCCAGCCTCCTGGCTGGGCGCGGTCGGCCTCACACTC (5mC at 10 34)	8700 a.u.
GAGGCCGACCACGCCCGGCCTCCTGGCCGGGCGTGGTCGGCCTCACACTC (5mC at 28)	10200 a.u.
GAGGCCGGCCACGCCCAGCCTCCTGGCTGGGCGTGGCCGGCCTCACACTC	9450 a.u.
GAGGCCGACCACGCCCTGCCTCCTGGCAGGGCGTGGTCGGCCTCACACTC	10300 a.u.
GAGGCCGACCACGCCCAGCCTCCTGGCTGGGCGTGGTCGGCCTCACACTC (5mC at 12)	9210 a.u.
GAGGCCGACAACGCCCAGCCTCCTGGCTGGGCGTTGTCGGCCTCACACTC	8040 a.u.

Series 5
Target: RNA binding protein fox-1 homolog 2, RRM domain, GST-SBP tag (RBFOX2, Homo sapiens, UniProt O43251-10, residues 100-194)
Method: RNA Bind-n-Seq
Form: RNA
Sample: in vitro
Tested at: 365 nM
Setting: natural RNA segment, single round, ends assumed
Reference: no-protein control
Direction: higher = stronger binding
Shared flanks, not repeated: GGGAGUUCUACAGUCCGACGAUC … UGGAAUUCUCGGGUGCCAA
Construct (chain): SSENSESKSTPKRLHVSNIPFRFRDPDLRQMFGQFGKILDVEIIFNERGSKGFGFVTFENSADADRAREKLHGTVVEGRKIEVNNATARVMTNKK
Sequence	RBNS enrichment (R)
AGGACCUGGAGUCCUGGGGAGAGAAGGUGGGGAGGCUUGAGGCCUUUCUCUACUCCUCUCCCUCAGUCCUGAGACACUAAGAUCCCCUGGGCCAAGUCAGUUGGAGGCUG	0.259
GGAGGAGGGUGCCACCCUCUCCCUGCCAGGGGCCUGGGGACCCUCUCCCUGGCUGCCUCAGGCUUCUCUUACGAAGAGGAAACGCAAAAAAAGAAAAGGAAAAACCCCGU	0.378
UUAAACCCCUGUUAACUCUCCAUAAAUUUGGUGAUUCUCUGCUAGGCCUAAGAUUUUGAGUUAACAUCUCUUGAAGCCAAACUCCACCUUCUGUGCUUUUUGCUUGGGAU	0.43
CCCUCGUUCUCGGUCCUGCCUGGAACCUUUGUACGCUUUGCUCAAAAAUCAGCGAGCCUUCGCAUUUGAUGCCAAGUUUUUGUUACAGAUUAAUUUUUCCAUAAAACCAU	0.309
GUAUAAAUGGAAUGUUGUGGAGAUGACCCCUCCCUGUGCCGGCUGGUUCCUCUCCCUUUUCCCCUGGUCACGGCUACUCAUGGAAGCAGGACCAGUAAGGGACCUUCGAU	0.623
UUUUAAAACUAUGUAAUAUUUGGACCAGAUGUUGUGAAUAACAGUAGAGAAAGCUAUUUUAUUCUGUAUUUUUAAAACUGUUCCGUACAAAUAAAAGCUCUCCUGGAUGU	0.457
UAAGGAGACGAAGACCUAACGGGGCACUGAGGCCGGGCUGCUUUAGGAUCCCAAGUGGCAAGAAAGCUCACAUUUUUUGAGUUCAAAUGCUACUGUCUAAGCGCAAAGUC	0.301
ACUCCCUAGCGCCCUGGUUGUGGUGACAGUCCAACAAGUUGAUAUUAUAAAGCACUUUAUAACACCCCUCUGUUUGCUAUUAUUUAAGAGCGUGCAAUUGGUGGUUCUGA	0.549
UUUCUUCAAGAGGAAACAUAUUCUGUCCGAAGGAAACUGUAGUGCGAGCCCAGAGUGUUCAAAGGCGCCAAGGUCCUGGCAGGUUACAAAGGGUUUUGUGUUGGCAUGAG	1.3
AACCGUGACGUCCAAGGAACCAAACCCAGACGCAGAACAAUAAAAUAAAUUCCGUACUCCCCACCCAGGUCCUGCGUGGCGAUGUGUGUCUGGGGCCCUGGGGAAAUAGU	0.492
UCAGAAAUCCGCCUGCCUCUGCCUCCCGAGUGCUGGGAUUAAAGGUGCAAACUACCACGCCUGGCAGACCCACCAUUUCUUUGCUUUGGAAAGGUAAUUUAUGAUUAACU	1.45
CCUGGACAUGAAUGUAUUGUACACUGACGCGUCCCCACUCCUGUACAGCUGCUUUGUUUCUUUGCAAUGCAUUGUAUGGCUUUAUAAAUGAUAAAGUUAAAGAAAACUCU	0.652

Some of these lines once more (series 2):
Modification	mean fluorescence intensity [a.u.]
2'F-ANA at 1 5 7 8 9 12 14 15	51.4
2'F-ANA at 2 3 5 6 10 13 15	48.3
2'F-ANA at 3 4 5 7 11	84.9
2'F-ANA at 1 3 4 7 8 9 15	259
2'F-ANA at 6 7 9 10 11	150
2'F-ANA at 1 2 5 7 8 11 15	54.5
